Measurements collected from several papers.
Compare with care: the assays were run in different laboratories. Values joined by “and” are separate records of one study, mostly repeats; a detail may differ. Numbers after ± are the reported error.

Compound	cell line	test	conditions	endpoint	result
Oc1ccc(C(c2ccc(O)cc2)(C(F)(F)F)C(F)(F)F)cc1	HepG2 spheroids, dissociated	annexin V-FITC/PI flow cytometry	10 µM, 24 h	viable cells	73.5 ± 7.34%
CC[C@H](C)[C@H](NC(=O)[C@H](CCCNC(=N)N)NC(=O)[C@@H](N)C(C)C)C(=O)N[C@@H](CO)C(=O)NCC(=O)N[C@@H](CCCNC(=N)N)C(=O)NCC(=O)N[C@@H](Cc1ccccc1)C(=O)N[C@@H](CS)C(=O)N[C@H](C(=O)N[C@@H](CCCCN)C(=O)N[C@@H](CCSC)C(=O)N[C@@H](Cc1ccccc1)C(=O)N[C@@H](Cc1ccc(O)cc1)C(=O)N[C@H](C(=O)N[C@@H](CCCCN)C(=O)N1CCC[C@H]1C(=O)N[C@H](C(=O)N[C@@H](CCCCN)C(=O)N[C@@H](Cc1ccc(O)cc1)C(=O)N[C@@H](CCCCN)C(=O)NCC(=O)N1CCC[C@H]1C(=O)N[C@H](C(=O)N[C@@H](CCCCN)C(=O)N[C@@H](CCCCN)C(=O)NCC(=O)N[C@@H](CCC(=O)O)C(=O)N[C@@H](CCCCN)C(=O)N[C@@H](CC(C)C)C(=O)NCC(=O)N[C@H](C(=O)N[C@@H](CC(C)C)C(=O)N[C@@H](CC(C)C)C(=O)N1CCC[C@H]1C(=O)N[C@@H](CC(C)C)C(=O)N[C@@H](CCC(N)=O)C(=O)N[C@@H](CCCCN)C(=O)N[C@H](C(=O)N[C@@H](Cc1ccc(O)cc1)C(=O)O)C(C)C)[C@@H](C)O)[C@@H](C)CC)[C@@H](C)CC)[C@@H](C)CC)C(C)C	PMA-differentiated THP-1	cell viability, MTT	24 h	CC50	45.3 µM
CC(C)C[C@H](NC(=O)[C@H](C)NC(=O)[C@@H](NC(=O)[C@H](CCCNC(=N)N)NC(=O)[C@H](CC(C)C)NC(=O)[C@H](Cc1c[nH]c2ccccc12)NC(=O)[C@@H]1CCCN1C(=O)[C@@H](N)CCCCN)C(C)C)C(=O)N[C@@H](CS)C(=O)N1CCC[C@H]1C(=O)NCC(=O)O	H9c2	WST-1	16 µM, 24 h	viability	92.8% and 101% and 114%
CC(=N)S	THLE-2	MTT	400 µM, 96 h, 2D monolayer culture	viability	47.7%
Cc1cc(C(C)(C)c2ccc(O)c(C)c2)ccc1O	HepG2 spheroids	annexin V-FITC/PI flow cytometry	0.10 µM, 96 h	late apoptotic cells	29.3 ± 7.85%
CC(C)C[C@H](NC(=O)OCc1ccccc1)C(=O)N[C@@H](CC(C)C)C(=O)N[C@@H](CC1CCNC1=O)C(=O)C(=O)NC1CC1 (stereo partly drawn)	RD	–	5 (unit not given)	CC50	85.3 ± 7.8 µM
CC[C@H](C)[C@H](NC(=O)CN)C(=O)N[C@@H](Cc1c[nH]c2ccccc12)C(=O)N[C@@H](CC(=O)O)C(=O)N[C@@H](CCSC)C(=O)N[C@H](C(=O)N[C@@H](CCCNC(=N)N)C(=O)N[C@@H](CCCCN)C(=O)N[C@H](C(=O)N[C@@H](CCCNC(=N)N)C(=O)N[C@H](C(=O)N[C@H](C(=O)N[C@H](C(=O)N[C@@H](CCCNC(=N)N)C(=O)N[C@@H](CCCCN)C(=O)N[C@@H](C)C(=O)N[C@@H](CCCCN)C(=O)N[C@@H](CCC(N)=O)C(=O)N[C@H](C(=O)N[C@@H](CCCCN)C(=O)N[C@H](C(=O)N[C@@H](Cc1ccccc1)C(=O)N[C@H](C(=O)N[C@@H](CC(N)=O)C(=O)NCC(=O)N[C@@H](CCCCN)C(=O)NCC(=O)N[C@H](C(=O)N[C@@H](CCC(N)=O)C(=O)O)C(C)C)[C@@H](C)CC)[C@@H](C)O)[C@@H](C)CC)[C@@H](C)CC)C(C)C)[C@@H](C)O)C(C)C)[C@@H](C)CC	HUVEC	cytotoxicity, MTT	24 h, 37 °C	IC50	13.1 µM
NC(=O)c1ncn([C@@H]2O[C@H](CO)[C@@H](O)[C@H]2O)n1	HeLa	cell morphology alteration	–	minimum cytotoxic concentration	> 250 µM
C[C@H](NC(=O)[C@H](CCCNC(=N)N)NC(=O)[C@H](Cc1c[nH]c2ccccc12)NC(=O)[C@H](CCCNC(=N)N)NC(=O)[C@H](Cc1c[nH]c2ccccc12)NC(=O)[C@H](Cc1c[nH]c2ccccc12)NC(=O)[C@H](Cc1c[nH]c2ccccc12)NC(=O)[C@H](CCCNC(=N)N)NC(=O)[C@H](Cc1c[nH]c2ccccc12)NC(=O)[C@@H](N)CCCNC(=N)N)C(N)=O	PK-15	–	–	LC50	> 512 µM
Cn1c(C(=O)Nc2ccc3c(c2)OCCO3)cc2c(=O)n3ccccc3nc21	Vero	MTT	25 µM, 24 (unit not given)	viability	55.3%
O=S(=O)(c1ccc(O)cc1)c1ccc(O)cc1	HepG2 spheroids, dissociated	annexin V-FITC/PI flow cytometry	10 µM, 96 h	late apoptotic cells	37.2 ± 1.8%
O=c1ccc2ccccc2o1	HepaRG 3D spheroids	cell membrane permeability	concentration not given, 168 h, high-content imaging	response probability	99.4%

For quick reference, copied from above:
Compound	cell line	test	conditions	endpoint	result
CC(C)C[C@H](NC(=O)OCc1ccccc1)C(=O)N[C@@H](CC(C)C)C(=O)N[C@@H](CC1CCNC1=O)C(=O)C(=O)NC1CC1 (stereo partly drawn)	RD	–	5 (unit not given)	CC50	85.3 ± 7.8 µM
